Measurements gathered from unrelated publications.
Numbered parts are unrelated; each lists some results of a single study. “And” joins repeats or separate records; there may be more than shown.
UniProt Q9UM73, sequence (whole entry, looked up): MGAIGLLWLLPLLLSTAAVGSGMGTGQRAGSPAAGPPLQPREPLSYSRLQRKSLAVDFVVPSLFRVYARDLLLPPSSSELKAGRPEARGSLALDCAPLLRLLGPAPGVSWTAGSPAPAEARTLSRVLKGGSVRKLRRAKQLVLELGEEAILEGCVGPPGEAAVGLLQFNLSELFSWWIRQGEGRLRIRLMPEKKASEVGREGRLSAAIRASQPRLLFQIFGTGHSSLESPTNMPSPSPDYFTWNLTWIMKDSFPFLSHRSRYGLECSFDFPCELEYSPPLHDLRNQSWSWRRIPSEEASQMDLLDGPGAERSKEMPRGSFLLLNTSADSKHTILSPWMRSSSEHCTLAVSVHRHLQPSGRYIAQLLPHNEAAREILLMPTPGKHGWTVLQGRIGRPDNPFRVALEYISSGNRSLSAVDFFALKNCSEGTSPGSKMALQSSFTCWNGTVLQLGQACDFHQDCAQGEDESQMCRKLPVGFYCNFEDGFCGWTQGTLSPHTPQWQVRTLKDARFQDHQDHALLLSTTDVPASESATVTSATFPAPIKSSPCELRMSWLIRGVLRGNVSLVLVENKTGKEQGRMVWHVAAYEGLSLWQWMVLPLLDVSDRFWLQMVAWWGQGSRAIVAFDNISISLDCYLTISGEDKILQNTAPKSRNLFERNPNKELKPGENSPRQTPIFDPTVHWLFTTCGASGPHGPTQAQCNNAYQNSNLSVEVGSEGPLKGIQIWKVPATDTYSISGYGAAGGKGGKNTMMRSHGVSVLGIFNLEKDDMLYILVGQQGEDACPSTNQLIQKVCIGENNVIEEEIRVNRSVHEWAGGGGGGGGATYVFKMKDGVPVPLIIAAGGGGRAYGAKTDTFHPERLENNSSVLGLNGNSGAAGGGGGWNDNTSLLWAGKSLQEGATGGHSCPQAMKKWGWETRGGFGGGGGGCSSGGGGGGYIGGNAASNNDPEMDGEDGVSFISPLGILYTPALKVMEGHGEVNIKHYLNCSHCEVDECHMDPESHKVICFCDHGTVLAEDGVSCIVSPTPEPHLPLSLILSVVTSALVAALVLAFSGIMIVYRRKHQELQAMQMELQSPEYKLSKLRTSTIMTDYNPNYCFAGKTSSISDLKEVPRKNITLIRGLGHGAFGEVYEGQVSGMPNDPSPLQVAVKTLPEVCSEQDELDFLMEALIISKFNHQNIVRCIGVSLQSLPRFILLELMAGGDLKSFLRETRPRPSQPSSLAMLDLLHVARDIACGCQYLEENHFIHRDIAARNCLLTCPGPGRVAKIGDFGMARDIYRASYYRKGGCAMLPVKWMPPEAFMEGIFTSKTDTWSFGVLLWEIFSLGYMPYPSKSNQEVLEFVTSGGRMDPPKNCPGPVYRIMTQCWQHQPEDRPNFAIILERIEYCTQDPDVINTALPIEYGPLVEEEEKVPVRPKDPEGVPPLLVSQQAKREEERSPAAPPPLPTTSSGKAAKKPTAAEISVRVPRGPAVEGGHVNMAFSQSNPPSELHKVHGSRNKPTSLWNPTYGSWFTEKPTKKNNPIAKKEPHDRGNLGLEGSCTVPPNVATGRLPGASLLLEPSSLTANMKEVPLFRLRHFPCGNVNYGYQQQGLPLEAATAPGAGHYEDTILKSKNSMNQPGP
UniProt P42336, sequence (whole entry, unmodified, looked up): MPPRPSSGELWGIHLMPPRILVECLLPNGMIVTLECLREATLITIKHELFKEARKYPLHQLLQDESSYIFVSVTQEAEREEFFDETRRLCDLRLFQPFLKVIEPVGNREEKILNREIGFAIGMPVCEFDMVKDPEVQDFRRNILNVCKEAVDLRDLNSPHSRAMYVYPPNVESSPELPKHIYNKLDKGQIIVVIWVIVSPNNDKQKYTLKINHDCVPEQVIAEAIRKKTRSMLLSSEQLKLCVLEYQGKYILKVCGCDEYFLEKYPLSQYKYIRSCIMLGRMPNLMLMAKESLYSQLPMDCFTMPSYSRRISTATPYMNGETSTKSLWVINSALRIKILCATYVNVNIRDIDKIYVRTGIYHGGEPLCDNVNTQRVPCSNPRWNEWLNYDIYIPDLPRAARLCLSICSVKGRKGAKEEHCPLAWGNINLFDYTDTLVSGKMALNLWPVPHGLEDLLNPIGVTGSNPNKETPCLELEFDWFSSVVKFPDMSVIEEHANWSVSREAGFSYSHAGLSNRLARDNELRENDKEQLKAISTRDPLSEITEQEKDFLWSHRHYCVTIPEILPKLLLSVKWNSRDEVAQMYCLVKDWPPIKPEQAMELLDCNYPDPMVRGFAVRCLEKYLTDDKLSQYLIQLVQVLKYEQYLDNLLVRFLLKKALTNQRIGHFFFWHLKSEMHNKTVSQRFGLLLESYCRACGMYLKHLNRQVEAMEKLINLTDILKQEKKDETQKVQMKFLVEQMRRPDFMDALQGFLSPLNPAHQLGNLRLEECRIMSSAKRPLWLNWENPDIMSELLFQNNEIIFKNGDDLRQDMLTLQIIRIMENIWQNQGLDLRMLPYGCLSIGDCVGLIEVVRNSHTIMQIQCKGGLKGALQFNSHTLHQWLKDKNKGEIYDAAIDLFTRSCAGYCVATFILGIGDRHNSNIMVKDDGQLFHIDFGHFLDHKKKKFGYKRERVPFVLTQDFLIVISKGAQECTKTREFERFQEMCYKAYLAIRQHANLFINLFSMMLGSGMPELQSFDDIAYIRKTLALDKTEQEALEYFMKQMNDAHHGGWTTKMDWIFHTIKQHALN
UniProt Q99683, sequence (whole entry, looked up): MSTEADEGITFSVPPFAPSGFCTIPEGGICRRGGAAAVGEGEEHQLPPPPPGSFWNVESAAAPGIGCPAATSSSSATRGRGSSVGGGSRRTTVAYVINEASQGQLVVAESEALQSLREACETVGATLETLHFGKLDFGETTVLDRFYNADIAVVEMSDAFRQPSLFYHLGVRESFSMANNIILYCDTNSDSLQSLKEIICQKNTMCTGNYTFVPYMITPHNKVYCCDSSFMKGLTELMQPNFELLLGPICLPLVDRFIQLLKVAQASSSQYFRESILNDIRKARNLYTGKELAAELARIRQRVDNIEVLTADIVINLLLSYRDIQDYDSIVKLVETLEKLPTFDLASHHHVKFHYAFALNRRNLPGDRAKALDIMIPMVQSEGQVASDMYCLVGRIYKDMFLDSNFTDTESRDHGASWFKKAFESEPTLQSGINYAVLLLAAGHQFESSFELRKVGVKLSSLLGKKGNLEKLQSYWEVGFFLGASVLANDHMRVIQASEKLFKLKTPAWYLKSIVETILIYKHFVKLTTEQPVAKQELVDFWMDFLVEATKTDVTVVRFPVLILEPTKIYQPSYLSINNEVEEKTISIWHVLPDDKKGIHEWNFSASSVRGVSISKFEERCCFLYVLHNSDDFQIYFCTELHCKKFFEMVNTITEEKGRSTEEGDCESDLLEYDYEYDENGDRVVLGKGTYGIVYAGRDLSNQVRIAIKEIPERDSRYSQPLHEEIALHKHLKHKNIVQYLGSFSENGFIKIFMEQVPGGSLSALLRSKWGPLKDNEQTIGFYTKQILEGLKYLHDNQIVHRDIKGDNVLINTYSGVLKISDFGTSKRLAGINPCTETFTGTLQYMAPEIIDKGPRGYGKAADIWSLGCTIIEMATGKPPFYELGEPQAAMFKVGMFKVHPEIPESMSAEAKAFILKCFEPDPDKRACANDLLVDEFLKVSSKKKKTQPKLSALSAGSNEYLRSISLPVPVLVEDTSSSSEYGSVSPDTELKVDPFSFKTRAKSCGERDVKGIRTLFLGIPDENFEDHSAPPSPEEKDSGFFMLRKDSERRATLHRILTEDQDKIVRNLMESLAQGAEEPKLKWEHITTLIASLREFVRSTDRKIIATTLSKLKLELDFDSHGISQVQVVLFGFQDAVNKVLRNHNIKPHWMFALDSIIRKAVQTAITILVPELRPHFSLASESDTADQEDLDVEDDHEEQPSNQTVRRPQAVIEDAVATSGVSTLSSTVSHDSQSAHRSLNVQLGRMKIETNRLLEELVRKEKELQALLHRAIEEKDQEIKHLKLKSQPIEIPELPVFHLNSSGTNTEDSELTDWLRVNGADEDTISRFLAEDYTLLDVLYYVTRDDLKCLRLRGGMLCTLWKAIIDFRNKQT

Sample 1
Structure (SMILES): NS(=O)(=O)c1cc(NC(=O)C2(c3ccccc3Cl)CC2)ccc1Oc1cccc(Cl)c1
Read-out: cell-free assay
Technique: competition with immobilised ligand
Tested at: 1 µM
For ALK tyrosine kinase receptor (ALK, Homo sapiens, UniProt Q9UM73): remaining binding read 85%.
The remaining binding was 82% (Phosphatidylinositol 4,5-bisphosphate 3-kinase catalytic subunit alpha isoform (PIK3CA, Homo sapiens, UniProt P42336, E545A)).
It gave 82% for remaining binding (Tyrosine-protein kinase ABL1, non-phosphorylated (ABL1, Homo sapiens, UniProt P00519, T315I)).
For Mitogen-activated protein kinase kinase kinase 5 (MAP3K5, Homo sapiens, UniProt Q99683): remaining binding read 88%.

Sample 2
Organism: Sarcocystis neurona
Read-out: parasite growth
Tested at: 10 µM
Setting: secondary screen
With CC(=O)OCC(=O)[C@@]1(O)CC[C@H]2[C@@H]3CCC4=CC(=O)CC[C@]4(C)[C@H]3[C@@H](O)C[C@@]21C the inhibition was 13.7%.
N[C@@H](Cc1cc(I)c(Oc2cc(I)c(O)c(I)c2)c(I)c1)C(=O)O gave an inhibition of -51.6%.
For CCC(C)n1ncn(-c2ccc(N3CCN(c4ccc(OCC5COC(Cn6cncn6)(c6ccc(Cl)cc6Cl)O5)cc4)CC3)cc2)c1=O (stereo not drawn), the inhibition was -58.1%.
For CS(=O)(=O)c1ccc(-c2cc(Br)sc2-c2ccc(F)cc2)cc1, the inhibition was 4%.

Sample 3
Cell line: HuT78
Tested at: 2 µM
Time: 48 h
Reference: untreated
With NC1(c2ccc(-c3nc4ccn5c(=O)[nH]nc5c4cc3-c3ccccc3)cc2)CCC1 the viability was 97.9%.
For CCC[C@H](NC(=O)/C(C#N)=C/c1cccc(Br)n1)c1ccccc1, the viability was 126%.
O=C1NC(=O)/C(=C/c2cccc(C(F)(F)F)c2)S1 has a viability of 142%.
For CC(C)N(CCC(=O)c1ccc2ccccc2c1)Cc1ccccc1, the viability was 89.9%.
NC(=O)c1cccc(-c2cc(Nc3ccc(OC(F)(F)F)cc3)ncn2)c1 has a viability of 115%.

Sample 4
SMILES: c1ccc(Oc2ccc(Nc3c4c(nc5ccccc35)CCC4)cc2)cc1
Organism: Leishmania donovani
Read-out: parasite killing
Strain: DD8
The inhibition was 99% and 100% (promastigotes; 66.66 µM, 96 h).
For intracellular amastigotes; 0.2 µM, 72 h: inhibition read 28% and 33%.
For intracellular amastigotes; 0.04 µM, 24 h: inhibition read 13% and 9%.
The inhibition was 100% (intracellular amastigotes; 80 µM, 24 h).
For promastigotes; 6.66 µM, 24 h: inhibition read 85% and 84% and 86%.
It gave 99% and 100% for inhibition (promastigotes; 33.33 µM, 24 h).

Sample 5
Target: Cyclin-dependent kinase 9, with cyclin T1 (CDK9, Homo sapiens, UniProt P50750)
UniProt P50750, sequence (whole entry, looked up): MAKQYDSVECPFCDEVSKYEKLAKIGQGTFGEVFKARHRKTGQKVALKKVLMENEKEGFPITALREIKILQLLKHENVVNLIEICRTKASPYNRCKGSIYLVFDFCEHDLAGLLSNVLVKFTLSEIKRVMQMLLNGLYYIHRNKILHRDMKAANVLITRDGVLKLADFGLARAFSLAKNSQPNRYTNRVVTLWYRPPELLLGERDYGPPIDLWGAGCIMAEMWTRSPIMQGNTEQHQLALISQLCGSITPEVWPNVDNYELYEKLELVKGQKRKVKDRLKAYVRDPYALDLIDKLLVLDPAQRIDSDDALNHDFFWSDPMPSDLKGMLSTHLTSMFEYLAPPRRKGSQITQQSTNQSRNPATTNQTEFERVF
Read-out: enzyme activity
Action: inhibitor
Tested at: 0.5 µM
Reference: control
CO[C@H]1C[C@@H]2CC[C@@H](C)[C@@](O)(O2)C(=O)C(=O)N2CCCC[C@H]2C(=O)O[C@H]([C@H](C)C[C@@H]2CC[C@@H](O)[C@H](OC)C2)CC(=O)[C@H](C)/C=C(\C)[C@@H](O)[C@@H](OC)C(=O)[C@H](C)C[C@H](C)/C=C/C=C/C=C/1C has a remaining activity of 87%.
For CN(C)c1ccc(C=C2C(=O)Nc3ccccc32)cc1, the remaining activity was 94.5%.
O=C(CCCc1ccc(-c2ccccc2F)cc1)Nc1ccc(O)cc1 gave a remaining activity of 103%.
COc1ccc(CNC(=O)Nc2ncc([N+](=O)[O-])s2)cc1 has a remaining activity of 88.1%.
Nc1ncnc2n[nH]c(Nc3ccc(F)cc3)c12 gave a remaining activity of 99.1%.
Nc1[nH]nc2nc3ccccc3nc12 has a remaining activity of 81.6%.
COc1cc2ncnc(Nc3ccc(Oc4ccccc4)cc3)c2cc1OC has a remaining activity of 86.7%.
With O=C1NC(=O)C(c2cn(CCCO)c3ncccc23)=C1c1cnccn1 the remaining activity was 88.3%.
For O=C(O)c1ccc2c3c1cccc3c(=O)n1c3ccccc3nc21, the remaining activity was 78.3%.
Cc1nc(-c2ccccc2)c(-c2ccncc2)o1 gave a remaining activity of 84.6%.
N#CC(C#N)=C(N)/C(C#N)=C/c1ccc(O)cc1 gave a remaining activity of 83.9%.
The remaining activity of COc1cc2nccc(Oc3ccc(NC(=S)NC(=O)c4ccccc4C)cc3)c2cc1OC is reported as 104%.
CCOC(=O)c1c(C)[nH]c(/C=C2\C(=O)Nc3ccccc32)c1C gave a remaining activity of 94.7%.
The remaining activity of O=C1NC(=O)C(c2cn(CCCn3ccnc3)c3ccccc23)=C1Nc1ccccc1 is reported as 51.3%.

Excerpt of the above (sample 5):
COc1ccc(CNC(=O)Nc2ncc([N+](=O)[O-])s2)cc1 has a remaining activity of 88.1%.
For CN(C)c1ccc(C=C2C(=O)Nc3ccccc32)cc1, the remaining activity was 94.5%.
O=C(CCCc1ccc(-c2ccccc2F)cc1)Nc1ccc(O)cc1 gave a remaining activity of 103%.
N#CC(C#N)=C(N)/C(C#N)=C/c1ccc(O)cc1 gave a remaining activity of 83.9%.
